Measurements collected from several papers.
Each line is one published result; not all experiments were run side by side. “And” joins repeats or separate records; there may be more than shown.
FGFR1: Fibroblast growth factor receptor 1 (FGFR1, Homo sapiens, UniProt P11362)
UniProt P11362, sequence (whole entry, unmodified, looked up): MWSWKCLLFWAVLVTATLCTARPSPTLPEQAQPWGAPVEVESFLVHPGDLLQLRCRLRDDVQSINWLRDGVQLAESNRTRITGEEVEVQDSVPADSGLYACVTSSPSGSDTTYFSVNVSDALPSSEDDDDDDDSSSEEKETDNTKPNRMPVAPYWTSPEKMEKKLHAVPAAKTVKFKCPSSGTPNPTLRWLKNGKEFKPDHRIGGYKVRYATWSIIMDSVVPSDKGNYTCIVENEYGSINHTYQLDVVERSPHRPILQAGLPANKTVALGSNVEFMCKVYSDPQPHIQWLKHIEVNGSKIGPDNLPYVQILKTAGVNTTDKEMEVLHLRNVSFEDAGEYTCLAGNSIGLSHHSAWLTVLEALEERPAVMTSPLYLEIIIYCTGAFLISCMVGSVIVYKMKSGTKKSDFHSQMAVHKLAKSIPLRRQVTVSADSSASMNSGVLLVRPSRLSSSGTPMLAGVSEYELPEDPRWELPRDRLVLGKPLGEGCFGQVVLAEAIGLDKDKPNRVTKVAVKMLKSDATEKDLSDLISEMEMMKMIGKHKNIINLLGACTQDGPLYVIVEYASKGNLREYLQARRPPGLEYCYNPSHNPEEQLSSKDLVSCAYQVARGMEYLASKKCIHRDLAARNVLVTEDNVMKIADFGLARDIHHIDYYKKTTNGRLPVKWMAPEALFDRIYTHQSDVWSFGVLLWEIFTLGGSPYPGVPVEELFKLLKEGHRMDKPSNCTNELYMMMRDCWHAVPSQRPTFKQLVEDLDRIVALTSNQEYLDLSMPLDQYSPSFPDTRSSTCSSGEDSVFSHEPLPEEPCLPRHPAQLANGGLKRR
FGFR1 V561M: Fibroblast growth factor receptor 1 (FGFR1, Homo sapiens, UniProt P11362, V561M)

Cc1[nH]nc2c1N=C(c1ccccc1Cl)c1cnc(N3CCOCC3)cc1N2
inhibition (FGFR1; enzyme activity, inhibitor; 0.5 µM): > 99%

Cc1cccc(-c2ccc3nc(NC(=O)C4CCOCC4)nn3c2)c1
remaining activity (FGFR1; enzyme activity, Dundee kinase panel; 10 µM): 88%

Cc1ccc(-c2c(/C=C(\C#N)C(=O)NC(C)C)n(CCCO)c3ncnc(N)c23)cc1
remaining binding (FGFR1; cell-free assay, competition with immobilised ligand; 1 µM): 97%

NC(=O)[C@@H](O)C[C@H]1CCc2sc3ncnc(O[C@H]4CC[C@H](N5CCOCC5)CC4)c3c21
inhibition (FGFR1; enzyme activity, inhibitor; 10 µM): 53%

O=C=[N][Ru-4]123([n]4c5ccc(O)cc5c5c6c(c7cc(F)c[n+]1c7c54)C(=O)NC6=O)[S+]1CC[S+]2CC[S+]3CC1 (centres unmarked)
remaining activity (FGFR1 V561M; enzyme activity; 100 nM, human enzyme, together with: 10 µM ATP; relative to: untreated): 83%

CNC(=O)C[C@H](Cc1ccc(C#N)cc1)NC(=O)c1cc(-c2ccc(CN[C@H](C)c3ccc(C)cc3)o2)ccc1Cl
activity vs control (FGFR1; enzyme activity, inhibitor; 1 µM): 81%

Cc1nc2c(F)cc(-c3nc(Nc4ccc(CNC(=O)CCCCCCC(=O)NO)cc4)ncc3F)cc2n1C(C)C
inhibition (FGFR1; enzyme activity, inhibitor; 1 µM): 66%

COCC12C(=O)NC3C4(C(OC)CC1O)C1CC5(O)C(OC)C(O)C(OC(C)=O)(C1C5OC(=O)c1ccccc1)C3(O)C(OC)C24 (centres unmarked)
remaining activity (FGFR1; kinase activity, inhibitor, ProQinase kinase profiling; 25 µM; relative to: control): 115% and 110%

CN1CCN(Cc2ccc(-c3ccc(CO[C@H]4CCC[C@@H]4NC(=O)c4cc(-c5cnn(C)c5)cnc4N)cc3)cc2)CC1
inhibition (FGFR1; enzyme activity, inhibitor; 0.1 µM): 2%

Cc1cccc(-c2ccc3nc(NC(=O)C4CCCO4)nn3c2)c1 (centres unmarked)
remaining activity (FGFR1; enzyme activity, Dundee kinase panel; 10 µM): 124%

O=C(Cc1ccc(OCc2ccccc2)cc1)NC1(C(=O)O)CCN(C(=O)c2ccc(-c3cccc(Cl)c3)cc2)CC1
activity vs control (FGFR1; enzyme activity, inhibitor; 10 µM): 89%

C=CC(=O)Nc1cccc(-c2cnc3[nH]cc(C(=O)NC(C)(C)C)c3n2)c1
inhibition (FGFR1; kinase activity; 0.1 µM): 22% and 24%

CNC1C[S+]2CC[S+]3CC[S+](C1)[Ru-4]321([N]=C=S)[n]2c3ccc(OC)cc3c3c4c(c5cc(F)c[n+]1c5c32)C(=O)NC4=O (centres unmarked)
remaining binding (FGFR1; KinomeScan; 0.1 µM; relative to: untreated): 71%

CCn1cc(C(=O)O)c(=O)c2c(N)c(F)c(NC3CCCCC3)cc21
inhibition (FGFR1; kinase activity; 0.1 µM, together with: ATP at Km): -2.1%

COc1cc(-n2cc3cc(F)cc(C(N)=O)c3n2)cc(Cl)c1C1CC(O)(CCO)Cc2ccccc21 (centres unmarked)
inhibition (FGFR1; enzyme activity, inhibitor; 10 µM): 0.9%

COc1ccc(O)cc1-c1c[nH]c2ncc(-c3cncc(C(=O)N(C)C)c3)cc12
inhibition (FGFR1; binding, competition with immobilised ligand; 0.2 µM): 10.3%

CNC(=O)C1CCN(c2cc(C)c(F)cc2NC(=O)c2ccc(-c3cc(O)ccc3C)c(C)c2)CC1
remaining binding (FGFR1; binding, competition with immobilised ligand; 1 µM): 94%

Cc1cnc2nc1Nc1cccc(c1)COC/C=C/COCc1cc(ccc1OCCN1CCOCC1)N2
remaining binding (FGFR1; binding; 0.1 µM): 68%

COc1ccc(C(=O)/C=C/c2ccccc2-c2c[nH]c3ccc(C#N)cc23)c(O)c1
inhibition (FGFR1; enzyme activity, inhibitor; 20 µM): 34%

COc1cc(Nc2nccc(-c3cnn4nc(OC)ccc34)n2)cc(C(F)(F)F)c1
remaining binding (FGFR1; binding, competition with immobilised ligand; 1 µM): 93%

COc1ccc(NC(=O)Nc2ccc3c(c2)C(=O)N(C(C)CO)CC(C)C(CN(C)Cc2ccc4c(c2)OCO4)O3)cc1 (centres unmarked)
remaining activity (FGFR1 V561M; kinase activity; 0.03 µM; relative to: control): 90%

Nc1ncc(-c2cc(-c3cnn(CC(F)(F)F)c3)ncc2F)nc1C(=O)NC1CNCC(F)C1 (centres unmarked)
remaining activity (FGFR1; enzyme activity; 1 µM; relative to: DMSO control): 91.1%

Cc1cccc(O[C@H]2CCC[C@@H](C(C)CNCc3ccncc3)C2)c1 (relative stereo)
inhibition (FGFR1; cell-free assay; 10 µM): 1%

A few entries again:
COCC12C(=O)NC3C4(C(OC)CC1O)C1CC5(O)C(OC)C(O)C(OC(C)=O)(C1C5OC(=O)c1ccccc1)C3(O)C(OC)C24 (centres unmarked)
remaining activity (FGFR1; kinase activity, inhibitor, ProQinase kinase profiling; 25 µM; relative to: control): 115% and 110%

COc1cc(Nc2nccc(-c3cnn4nc(OC)ccc34)n2)cc(C(F)(F)F)c1
remaining binding (FGFR1; binding, competition with immobilised ligand; 1 µM): 93%

Cc1[nH]nc2c1N=C(c1ccccc1Cl)c1cnc(N3CCOCC3)cc1N2
inhibition (FGFR1; enzyme activity, inhibitor; 0.5 µM): > 99%
